Experimental data collected from several papers.
Lines come from different studies, so protocols differ. ± gives the spread as reported.
ampC: Beta-lactamase (ampC, Escherichia coli K-12, UniProt P00811)
Sequence of UniProt P00811 (whole entry, looked up): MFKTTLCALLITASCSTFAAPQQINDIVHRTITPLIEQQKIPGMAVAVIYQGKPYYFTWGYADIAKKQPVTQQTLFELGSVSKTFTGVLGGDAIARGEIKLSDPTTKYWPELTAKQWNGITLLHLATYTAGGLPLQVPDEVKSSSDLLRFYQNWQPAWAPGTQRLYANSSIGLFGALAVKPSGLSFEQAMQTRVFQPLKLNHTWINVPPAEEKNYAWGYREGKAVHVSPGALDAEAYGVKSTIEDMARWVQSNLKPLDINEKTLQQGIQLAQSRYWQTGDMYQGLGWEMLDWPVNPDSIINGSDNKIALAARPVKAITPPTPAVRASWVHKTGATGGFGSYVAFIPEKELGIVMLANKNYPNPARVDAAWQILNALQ
HLA class I histocompatibility antigen, A alpha chain allele A*24:02: HLA class I histocompatibility antigen, A alpha chain, allele A*24:02 (Homo sapiens, UniProt P04439)
HLA class I histocompatibility antigen, A alpha chain allele A*02:01: HLA class I histocompatibility antigen, A alpha chain, allele A*02:01 (Homo sapiens, UniProt P04439)
Sequence of UniProt P03023 (whole entry, unmodified, looked up): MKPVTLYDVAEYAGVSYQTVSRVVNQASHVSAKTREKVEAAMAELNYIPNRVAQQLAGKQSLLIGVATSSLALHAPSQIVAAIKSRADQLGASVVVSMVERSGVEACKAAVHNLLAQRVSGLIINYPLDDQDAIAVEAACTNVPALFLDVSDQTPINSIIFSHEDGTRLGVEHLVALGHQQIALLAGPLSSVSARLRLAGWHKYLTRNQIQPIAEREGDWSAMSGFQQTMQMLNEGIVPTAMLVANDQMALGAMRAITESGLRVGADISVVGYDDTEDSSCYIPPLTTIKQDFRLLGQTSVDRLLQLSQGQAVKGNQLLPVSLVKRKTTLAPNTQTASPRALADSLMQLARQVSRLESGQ
Sequence of UniProt P77488 (whole entry, unmodified, looked up): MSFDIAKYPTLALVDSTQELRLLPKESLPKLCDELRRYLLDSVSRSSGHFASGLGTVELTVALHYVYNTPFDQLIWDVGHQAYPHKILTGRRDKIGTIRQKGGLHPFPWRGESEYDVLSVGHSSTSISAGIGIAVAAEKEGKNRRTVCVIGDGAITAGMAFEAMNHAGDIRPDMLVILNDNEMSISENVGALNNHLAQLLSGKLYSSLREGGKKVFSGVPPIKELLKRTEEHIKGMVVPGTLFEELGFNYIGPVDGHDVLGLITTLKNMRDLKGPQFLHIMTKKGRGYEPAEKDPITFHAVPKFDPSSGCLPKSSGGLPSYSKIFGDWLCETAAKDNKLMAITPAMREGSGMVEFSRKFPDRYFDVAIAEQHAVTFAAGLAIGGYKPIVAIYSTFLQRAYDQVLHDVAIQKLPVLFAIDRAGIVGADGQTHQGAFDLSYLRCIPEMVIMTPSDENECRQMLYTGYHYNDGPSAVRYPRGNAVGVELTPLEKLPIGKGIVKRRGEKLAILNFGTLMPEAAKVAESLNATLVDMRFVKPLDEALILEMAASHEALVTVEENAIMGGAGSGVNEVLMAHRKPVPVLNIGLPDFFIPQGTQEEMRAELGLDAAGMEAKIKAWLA
Sequence of UniProt P51451 (whole entry, looked up): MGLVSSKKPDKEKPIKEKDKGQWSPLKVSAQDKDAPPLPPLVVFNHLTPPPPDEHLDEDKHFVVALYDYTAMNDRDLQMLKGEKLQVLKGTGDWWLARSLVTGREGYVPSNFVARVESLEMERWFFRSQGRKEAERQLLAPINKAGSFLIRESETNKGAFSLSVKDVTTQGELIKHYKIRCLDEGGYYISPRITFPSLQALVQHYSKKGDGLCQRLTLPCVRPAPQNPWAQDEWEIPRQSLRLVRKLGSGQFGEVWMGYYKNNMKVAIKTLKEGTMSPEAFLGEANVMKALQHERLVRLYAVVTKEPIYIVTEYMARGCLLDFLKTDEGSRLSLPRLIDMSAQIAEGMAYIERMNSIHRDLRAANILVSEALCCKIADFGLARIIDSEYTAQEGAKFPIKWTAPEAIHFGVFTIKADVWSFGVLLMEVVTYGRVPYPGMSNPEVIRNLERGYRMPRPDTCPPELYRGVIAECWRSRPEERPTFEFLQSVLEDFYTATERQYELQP
Sequence of UniProt P16885 (whole entry, looked up): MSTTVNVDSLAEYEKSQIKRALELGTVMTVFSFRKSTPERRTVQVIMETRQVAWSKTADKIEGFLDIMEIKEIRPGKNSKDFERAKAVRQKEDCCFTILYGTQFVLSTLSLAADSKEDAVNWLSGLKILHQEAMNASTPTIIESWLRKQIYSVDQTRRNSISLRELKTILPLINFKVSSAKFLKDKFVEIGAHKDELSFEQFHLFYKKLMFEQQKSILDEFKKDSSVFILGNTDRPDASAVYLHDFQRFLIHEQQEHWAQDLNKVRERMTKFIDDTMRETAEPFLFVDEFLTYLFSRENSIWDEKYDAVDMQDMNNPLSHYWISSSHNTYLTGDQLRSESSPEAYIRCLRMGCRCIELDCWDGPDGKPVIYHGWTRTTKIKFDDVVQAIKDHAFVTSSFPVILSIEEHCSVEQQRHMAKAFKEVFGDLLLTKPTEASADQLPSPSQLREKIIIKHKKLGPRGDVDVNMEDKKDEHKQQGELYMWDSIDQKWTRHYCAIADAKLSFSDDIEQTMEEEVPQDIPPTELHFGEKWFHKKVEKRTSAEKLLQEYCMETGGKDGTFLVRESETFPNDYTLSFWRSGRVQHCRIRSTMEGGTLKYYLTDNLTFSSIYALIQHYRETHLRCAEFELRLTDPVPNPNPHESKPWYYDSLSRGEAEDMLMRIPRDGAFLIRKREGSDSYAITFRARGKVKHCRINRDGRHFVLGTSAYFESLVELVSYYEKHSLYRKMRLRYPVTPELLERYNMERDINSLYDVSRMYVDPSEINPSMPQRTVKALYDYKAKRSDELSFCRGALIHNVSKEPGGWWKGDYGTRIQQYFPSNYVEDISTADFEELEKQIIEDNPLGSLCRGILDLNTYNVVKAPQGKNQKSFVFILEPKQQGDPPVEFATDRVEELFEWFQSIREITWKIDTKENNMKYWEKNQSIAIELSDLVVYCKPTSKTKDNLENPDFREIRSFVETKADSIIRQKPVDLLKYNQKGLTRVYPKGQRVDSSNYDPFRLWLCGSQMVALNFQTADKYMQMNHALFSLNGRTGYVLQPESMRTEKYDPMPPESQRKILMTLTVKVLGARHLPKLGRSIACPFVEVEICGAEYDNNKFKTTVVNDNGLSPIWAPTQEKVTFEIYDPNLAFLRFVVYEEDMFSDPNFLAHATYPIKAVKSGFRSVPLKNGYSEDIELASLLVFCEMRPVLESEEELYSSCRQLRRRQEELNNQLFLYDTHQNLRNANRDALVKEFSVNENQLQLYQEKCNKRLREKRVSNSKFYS
Sequence of UniProt O75751 (whole entry, looked up): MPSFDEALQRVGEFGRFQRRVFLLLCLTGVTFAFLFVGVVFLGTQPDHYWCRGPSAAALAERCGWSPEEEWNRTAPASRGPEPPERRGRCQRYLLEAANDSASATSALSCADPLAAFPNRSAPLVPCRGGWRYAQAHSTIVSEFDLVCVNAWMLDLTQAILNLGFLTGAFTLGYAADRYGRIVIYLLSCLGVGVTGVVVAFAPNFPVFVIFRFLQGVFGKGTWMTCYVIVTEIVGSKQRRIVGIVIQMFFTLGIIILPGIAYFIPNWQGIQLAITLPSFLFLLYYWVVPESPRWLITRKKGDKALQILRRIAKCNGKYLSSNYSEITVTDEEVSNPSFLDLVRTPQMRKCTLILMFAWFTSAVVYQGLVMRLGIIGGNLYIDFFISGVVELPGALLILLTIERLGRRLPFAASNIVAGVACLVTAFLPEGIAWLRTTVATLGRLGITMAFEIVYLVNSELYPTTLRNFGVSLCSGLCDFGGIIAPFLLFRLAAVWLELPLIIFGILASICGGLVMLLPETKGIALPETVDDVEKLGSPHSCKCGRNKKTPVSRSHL
Sequence of UniProt Q12974 (whole entry, looked up): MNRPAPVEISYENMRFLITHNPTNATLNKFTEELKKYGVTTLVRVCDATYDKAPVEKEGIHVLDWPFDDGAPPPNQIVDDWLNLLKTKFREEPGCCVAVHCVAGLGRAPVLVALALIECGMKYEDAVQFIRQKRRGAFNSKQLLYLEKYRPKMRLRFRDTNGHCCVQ

SMILES | target | assay | setting | measurement | value
O=S(=O)(Nc1c(Cl)ccc2c1OCO2)c1cc(Cl)cc(Cl)c1O | ampC | enzyme activity, inhibitor, concentration-response curves | together with: nitrocefin 50 µM | Ki | 1.92 µM
C=CCCC(NS(=O)(=O)c1cccc(Cl)c1O)C(=O)OC (stereo not drawn) | ampC | – | – | Ki | 112 µM
CSCC[C@H](NC(=O)[C@@H](NC(=O)[C@H](CC(C)C)NC(=O)[C@@H](NC(=O)[C@H](CCCCN)NC(=O)[C@H](CC(N)=O)NC(=O)[C@H](Cc1ccc(O)cc1)NC(=O)[C@H](CCSC)NC(=O)[C@@H](N)CCCNC(=N)N)[C@@H](C)O)[C@@H](C)O)C(=O)O | HLA class I histocompatibility antigen, A alpha chain allele A*24:02 | binding | – | IC50 | 49.1 µM
CSCC[C@H](NC(=O)[C@H](CC(=O)O)NC(=O)c1ccc2c(c1)C(=O)OC21c2ccc(N(C)C)cc2Oc2cc(N(C)C)ccc21)C(=O)N[C@@H](CO)C(=O)N[C@@H](CCCCN)C(=O)N[C@@H](CC(=O)O)C(=O)N[C@@H](CCC(=O)O)C(=O)N[C@@H](CO)C(=O)N[C@H](C(=O)N[C@@H](CC(=O)O)C(=O)N[C@@H](Cc1ccc(OP(=O)(O)O)cc1)C(=O)N[C@H](C(=O)N1CCC[C@H]1C(=O)N[C@@H](CCSC)C(=O)N[C@@H](CC(C)C)C(=O)N[C@@H](CC(=O)O)C(=O)N[C@@H](CCSC)C(=O)N[C@@H](CCCCN)C(=O)N[C@@H](CC(=O)O)C(=O)O)C(C)C)C(C)C | Tyrosine-protein kinase Blk, SH2 domain (BLK, Homo sapiens, UniProt P51451) | binding | – | Kd | 0.258 µM
C[C@H]1O[C@@H](Oc2ccccc2[N+](=O)[O-])[C@H](O)[C@@H](O)[C@H]1O | lacI (Escherichia coli, UniProt P03023, N125A) | operator DNA binding, nitrocellulose filter binding | together with: O1 operator DNA | EC50 | 200 ± 28 µM
CC[C@H](C)[C@H](NC(=O)[C@@H]1CCCN1C(=O)[C@H](CO)NC(=O)[C@H](CCSC)NC(=O)[C@H](CCC(N)=O)NC(=O)[C@@H](N)CCCCN)C(=O)N[C@@H](Cc1c[nH]c2ccccc12)C(=O)N[C@H](C(=O)N[C@@H](Cc1ccc(O)cc1)C(=O)O)[C@@H](C)O | HLA class I histocompatibility antigen, A alpha chain allele A*02:01 | binding | – | IC50 | 8.29 µM
CNC(C)Cc1ccc2n[se]nc2c1 (stereo not drawn) | Solute carrier family 22 member 3 (SLC22A3, Homo sapiens, UniProt O75751) | – | – | IC50 | 1130 ± 682 µM
CC[C@H](C)[C@H](NC(=O)[C@H](CC(=O)O)NC(=O)[C@H](C)NC(=O)[C@H](Cc1ccc(O)cc1)NC(=O)[C@H](CCCCN)NC(=O)c1ccc2c(c1)C(=O)OC21c2ccc(N(C)C)cc2Oc2cc(N(C)C)ccc21)C(=O)N[C@@H](CCC(=O)O)C(=O)N[C@@H](CO)C(=O)N[C@@H](CO)C(=O)N[C@@H](CC(N)=O)C(=O)N[C@@H](Cc1ccc(OP(=O)(O)O)cc1)C(=O)N[C@@H](CCSC)C(=O)N[C@@H](C)C(=O)N1CCC[C@H]1C(=O)N[C@@H](Cc1ccc(O)cc1)C(=O)N[C@@H](CC(=O)O)C(=O)N[C@@H](CC(N)=O)C(=O)N[C@@H](Cc1ccc(O)cc1)C(=O)N[C@@H](CC(=O)O)C(=O)O | 1-phosphatidylinositol 4,5-bisphosphate phosphodiesterase gamma-2, SH2 domain (PLCG2, Homo sapiens, UniProt P16885) | binding | – | Kd | 1.27 µM
COCCC(NS(=O)(=O)c1cccc(Cl)c1O)c1ccco1 (stereo not drawn) | ampC | – | – | Ki | 66.8 µM
CC(C)[C@H](NC(=O)[C@@H](N)CCCCN)C(=O)N[C@@H](CC(=O)O)C(=O)N1CCC[C@H]1C(=O)N[C@@H](CCCCN)C(=O)N[C@@H](Cc1ccccc1)C(=O)N[C@H](C(=O)N[C@@H](CO)C(=O)N[C@@H](Cc1ccccc1)C(=O)O)[C@@H](C)O | HLA class I histocompatibility antigen, A alpha chain allele A*24:02 | binding | – | IC50 | 19.2 µM
COC(=O)C(Cc1ccc(F)cc1)NS(=O)(=O)c1cccc(Cl)c1O (stereo not drawn) | ampC | – | – | Ki | 240 µM
CCCCOP(=O)(O)C(C)=O | 1-deoxy-D-xylulose-5-phosphate synthase (dxs, Escherichia coli, UniProt P77488, R99A) | inhibitor | – | Ki | 30 ± 6 µM
CSCC[C@H](NC(=O)[C@@H](N)CCCNC(=N)N)C(=O)N[C@@H](Cc1ccccc1)C(=O)NCC(=O)N1CCC[C@H]1C(=O)N1CCC[C@H]1C(=O)N[C@@H](CC(C)C)C(=O)N[C@H](C(=O)N[C@@H](Cc1ccccc1)C(=O)O)[C@@H](C)O | HLA class I histocompatibility antigen, A alpha chain allele A*02:01 | binding | – | IC50 | 0.874 µM
OC[C@H]1O[C@@H](OCCc2ccccc2)[C@H](O)[C@@H](O)[C@H]1O | lacI (Escherichia coli, UniProt P03023) | operator DNA release, nitrocellulose filter binding | together with: O1 operator DNA | EC50 | 500 ± 35 µM
CSCC[C@H](NC(=O)[C@@H](N)CCCNC(=N)N)C(=O)N[C@@H](Cc1c[nH]c2ccccc12)C(=O)N[C@@H](CO)C(=O)N[C@@H](CCCCN)C(=O)N1CCC[C@H]1C(=O)N[C@@H](CC(C)C)C(=O)N[C@@H](CCC(N)=O)C(=O)N[C@@H](Cc1ccccc1)C(=O)O | HLA class I histocompatibility antigen, A alpha chain allele A*02:01 | binding | – | IC50 | 1.81 µM
COc1cc(Nc2ncc(F)c(Nc3ccc4c(n3)NC(=O)C(C)(C)O4)n2)cc(OC)c1OC | Protein tyrosine phosphatase type IVA 2 (Homo sapiens, UniProt Q12974) | – | PRL-2 | IC50 | > 10 µM
CC[C@H](C)[C@H](NC(=O)[C@@H]1CCCN1C(=O)[C@H](Cc1c[nH]cn1)NC(=O)[C@H](CCCCN)NC(=O)[C@H](Cc1ccc(O)cc1)NC(=O)[C@@H](NC(=O)[C@@H](N)Cc1ccc(O)cc1)[C@@H](C)O)C(=O)N[C@@H](Cc1ccc(O)cc1)C(=O)N[C@@H](CC(C)C)C(=O)O | HLA class I histocompatibility antigen, A alpha chain, allele A*01:01 (Homo sapiens, UniProt P04439) | binding | – | IC50 | 2.8 µM
O=S(=O)(NCc1cc(-c2ccccc2)n[nH]1)c1cc(Cl)cc(Cl)c1O | ampC | – | – | Ki | 101 µM
